Published values of several laboratories.
Each line is one published result; not all experiments were run side by side. ± gives the spread as reported. In brackets after ≈: the same amount, converted by molar mass.

| Compound | organism | test | system | conditions | quantity | result |
| --- | --- | --- | --- | --- | --- | --- |
| CCCCCOc1ccc(-c2ccc(-c3ccc(C(=O)N[C@H]4C[C@@H](O)[C@@H](OCC[N+](C)(C)C)NC(=O)[C@@H]5[C@@H](O)[C@@H](C)CN5C(=O)[C@H]([C@@H](C)O)NC(=O)[C@H]([C@H](O)[C@@H](O)c5ccc(O)cc5)NC(=O)[C@@H]5C[C@@H](O)CN5C(=O)[C@H]([C@@H](C)O)NC4=O)cc3)cc2)cc1 | Candida glabrata | CLSI broth microdilution | 5592 | – | MIC | 0.06 µg/mL |
| O=C(NCc1cc(O)c(O)c(Br)c1)c1cccc(CCl)c1 | porcine epidemic diarrhea virus | viral replication, RT-qPCR, item: PEDV N gene | Vero-E6 | – | EC50 | 1910 ± 780 nM |
| CC1=NN(c2cccc(C)c2)C(=O)C1=NNc1ccc(S(N)(=O)=O)cc1 | Saccharomyces cerevisiae | – | – | 50 µg/mL | glucose uptake | 36.9% |
| O=C(/C=C/c1cccc(S(=O)(=O)Nc2ccccc2)c1)NO | Taenia solium | trypan blue uptake | viable cysts in vitro | 50 µg/mL | cysticidal efficacy | 70% |
| CC(=O)NC[C@H]1CN(c2ccc(N3CCOCC3)c(F)c2)C(=O)O1 | Streptococcus pyogenes | – | 10 isolates | serum 25% | MIC50 | 0.5 µg/mL (≈ 1.48 µM) |
| CC1=NN(c2ccc(Cl)cc2)C(=O)C1=NNc1ccc(S(N)(=O)=O)cc1 | Saccharomyces cerevisiae | – | – | 500 µg/mL | glucose uptake | 34.3% |
| Cc1cc(OC(C)C)ccc1C(=O)C(C)(C)NC(=O)c1sccc1C | Botrytis cinerea | appressorium formation | B05.10 | 9 h, 20 °C | EC50 | 0.04 µg/mL |
| CC(C)[C@@H]1NC(=O)[C@@H](CCCCN)NC(=O)[C@H]([C@@H](C)O)NC(=O)[C@@H](CCCN)NC(=O)[C@H](Cc2ccccc2)NC(=O)[C@@H](Cc2ccccc2)NC1=O | Naegleria fowleri | – | – | trophozoites | IC50 | > 16 µg/mL |
| CC[C@H]1OC(=O)[C@H](C)[C@@H](O[C@H]2C[C@@](C)(OC)[C@@H](O)[C@H](C)O2)[C@H](C)[C@@H](O[C@@H]2O[C@H](C)C[C@H](N(C)C)[C@H]2O)[C@](C)(O)C[C@@H](C)/C(=N\OCOCCOC)[C@H](C)[C@@H](O)[C@]1(C)O | Streptococcus viridans | – | 10 clinical isolates | – | MIC50 | 0.25 µg/mL (≈ 0.299 µM) |
| CC1=NN(c2ccc(F)cc2)C(=O)C1=NNc1ccc(S(N)(=O)=O)cc1 | Saccharomyces cerevisiae | – | – | 200 µg/mL | glucose uptake | 60% |
| C=CC(=O)ON=C1C=CC(=C(C#N)c2ccccc2)C=C1 | Candidozyma auris | – | ATCC MYA-5001 | concentration not given | antifungal activity | active |
| CC1=NN(c2cc(Cl)ccc2Cl)C(=O)C1=NNc1ccc(S(N)(=O)=O)cc1 | Saccharomyces cerevisiae | – | – | 200 µg/mL | glucose uptake | 57.5% |
| N=C(N)c1ccc(OCCCCCOc2ccc(C(=N)N)cc2)cc1 | Escherichia coli | – | BW25113 | concentration not given, lowest-FICI combination, added: rifampicin | MIC in combination | 50 µg/mL |
| CC1=NCCNC(=O)C1=NNc1ccc(S(N)(=O)=O)cc1 | Saccharomyces cerevisiae | – | – | 10 µg/mL | glucose uptake | 23.54 ± 0.00184% |
| O=C(N1CCc2ccccc21)n1ccnn1 | Oryza sativa | – | – | concentration not given | plant height | 20.1 cm |
| CO/N=C(\C(=O)N[C@@H]1C(=O)N2C(C(=O)O)=C(CSc3nc(=O)c(O)nn3C)CS[C@H]12)c1csc(N)n1 | Neisseria gonorrhoeae | broth microdilution | WHO O | 1.5 h | MIC | 1 µg/mL (≈ 1.8 µM) |
| CN[C@H](CC(C)C)C(=O)N[C@H]1C(=O)N[C@@H](CC(N)=O)C(=O)N[C@H]2C(=O)N[C@H]3C(=O)N[C@H](C(=O)N[C@H](C(=O)O)c4cc(O)cc(O)c4-c4cc3ccc4O)[C@H](O)c3ccc(c(Cl)c3)Oc3cc2cc(c3O[C@@H]2O[C@H](CO)[C@@H](O)[C@H](O)[C@H]2O[C@H]2C[C@](C)(N)[C@H](O)[C@H](C)O2)Oc2ccc(cc2Cl)[C@H]1O | Staphylococcus epidermidis | – | methicillin-resistant, 10 isolates | serum 0% | MIC50 | 2 µg/mL (≈ 1.38 µM) |

For quick reference, copied from above:
| Compound | organism | test | system | conditions | quantity | result |
| --- | --- | --- | --- | --- | --- | --- |
| O=C(N1CCc2ccccc21)n1ccnn1 | Oryza sativa | – | – | concentration not given | plant height | 20.1 cm |
